Results from different studies.
Parts stem from different laboratories: compare values within a part only. Positions count from the first letter of the parent shown.
UniProt P42336, sequence (whole entry, unmodified, looked up): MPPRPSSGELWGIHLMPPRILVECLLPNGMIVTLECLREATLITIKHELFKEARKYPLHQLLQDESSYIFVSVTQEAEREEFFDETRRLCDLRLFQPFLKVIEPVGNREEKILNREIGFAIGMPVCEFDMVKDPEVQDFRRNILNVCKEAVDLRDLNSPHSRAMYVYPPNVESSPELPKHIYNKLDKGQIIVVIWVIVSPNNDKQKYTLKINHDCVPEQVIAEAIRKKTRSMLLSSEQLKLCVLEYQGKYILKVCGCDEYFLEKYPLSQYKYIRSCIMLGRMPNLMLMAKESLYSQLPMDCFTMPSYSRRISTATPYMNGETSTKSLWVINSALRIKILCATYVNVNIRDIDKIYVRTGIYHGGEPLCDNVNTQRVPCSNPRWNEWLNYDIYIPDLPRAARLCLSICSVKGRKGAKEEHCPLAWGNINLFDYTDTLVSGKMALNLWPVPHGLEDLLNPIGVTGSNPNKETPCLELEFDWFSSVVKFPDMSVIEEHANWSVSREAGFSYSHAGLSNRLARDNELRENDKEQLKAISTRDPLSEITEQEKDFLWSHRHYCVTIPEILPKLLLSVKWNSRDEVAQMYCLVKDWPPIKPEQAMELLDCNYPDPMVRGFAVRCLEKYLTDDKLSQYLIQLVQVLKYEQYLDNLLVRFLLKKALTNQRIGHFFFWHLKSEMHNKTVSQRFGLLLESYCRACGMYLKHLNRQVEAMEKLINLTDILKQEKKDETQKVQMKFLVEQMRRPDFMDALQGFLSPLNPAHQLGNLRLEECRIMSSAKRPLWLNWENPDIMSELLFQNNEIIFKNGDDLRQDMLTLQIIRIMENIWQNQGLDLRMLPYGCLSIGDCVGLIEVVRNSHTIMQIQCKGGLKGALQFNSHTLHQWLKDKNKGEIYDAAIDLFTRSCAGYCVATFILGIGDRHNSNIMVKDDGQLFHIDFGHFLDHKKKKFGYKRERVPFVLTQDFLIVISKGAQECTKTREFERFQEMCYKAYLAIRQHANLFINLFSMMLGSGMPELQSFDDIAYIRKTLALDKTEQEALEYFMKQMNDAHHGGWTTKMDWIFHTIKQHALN
UniProt Q9Y6R4, sequence (whole entry, looked up): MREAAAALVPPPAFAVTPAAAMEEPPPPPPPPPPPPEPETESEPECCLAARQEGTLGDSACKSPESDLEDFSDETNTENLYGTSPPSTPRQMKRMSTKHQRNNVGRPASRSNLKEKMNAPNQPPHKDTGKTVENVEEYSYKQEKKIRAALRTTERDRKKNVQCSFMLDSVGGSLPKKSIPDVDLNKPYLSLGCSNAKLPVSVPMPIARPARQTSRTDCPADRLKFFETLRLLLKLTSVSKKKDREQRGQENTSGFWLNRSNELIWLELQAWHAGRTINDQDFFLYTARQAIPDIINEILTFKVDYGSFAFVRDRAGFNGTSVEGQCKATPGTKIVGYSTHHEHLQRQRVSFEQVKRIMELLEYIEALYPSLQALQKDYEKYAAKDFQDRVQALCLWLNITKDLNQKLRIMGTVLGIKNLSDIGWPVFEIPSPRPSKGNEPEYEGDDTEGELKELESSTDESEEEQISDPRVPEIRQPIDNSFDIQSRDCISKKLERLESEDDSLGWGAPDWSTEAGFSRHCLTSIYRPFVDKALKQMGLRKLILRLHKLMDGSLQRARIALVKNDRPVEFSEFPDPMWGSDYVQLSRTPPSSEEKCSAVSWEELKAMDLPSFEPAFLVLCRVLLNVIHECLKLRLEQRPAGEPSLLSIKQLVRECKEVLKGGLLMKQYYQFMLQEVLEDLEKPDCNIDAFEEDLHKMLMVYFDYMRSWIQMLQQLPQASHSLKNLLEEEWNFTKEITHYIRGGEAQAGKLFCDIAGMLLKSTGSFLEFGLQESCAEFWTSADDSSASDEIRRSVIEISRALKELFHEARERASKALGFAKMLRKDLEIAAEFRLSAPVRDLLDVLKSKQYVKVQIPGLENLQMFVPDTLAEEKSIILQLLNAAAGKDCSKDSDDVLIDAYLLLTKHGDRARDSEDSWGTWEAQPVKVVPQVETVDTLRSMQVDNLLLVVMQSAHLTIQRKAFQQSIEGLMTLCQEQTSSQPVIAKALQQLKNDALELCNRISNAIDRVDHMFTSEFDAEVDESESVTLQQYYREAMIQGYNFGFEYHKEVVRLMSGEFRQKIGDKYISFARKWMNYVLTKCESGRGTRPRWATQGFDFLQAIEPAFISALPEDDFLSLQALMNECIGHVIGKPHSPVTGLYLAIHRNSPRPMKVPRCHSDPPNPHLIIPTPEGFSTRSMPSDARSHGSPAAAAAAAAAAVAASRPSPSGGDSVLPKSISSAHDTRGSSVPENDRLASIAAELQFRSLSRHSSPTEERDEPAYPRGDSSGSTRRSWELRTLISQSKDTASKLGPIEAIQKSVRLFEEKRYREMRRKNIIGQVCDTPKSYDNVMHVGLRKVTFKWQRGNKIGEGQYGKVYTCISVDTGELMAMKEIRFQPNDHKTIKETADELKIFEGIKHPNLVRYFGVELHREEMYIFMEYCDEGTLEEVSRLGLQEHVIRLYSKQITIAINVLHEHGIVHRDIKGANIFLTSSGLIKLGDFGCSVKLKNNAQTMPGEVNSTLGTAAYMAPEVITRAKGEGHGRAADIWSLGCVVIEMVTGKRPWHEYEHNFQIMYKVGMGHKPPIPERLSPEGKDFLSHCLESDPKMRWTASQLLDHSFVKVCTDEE
UniProt Q7L7X3, sequence (whole entry, looked up): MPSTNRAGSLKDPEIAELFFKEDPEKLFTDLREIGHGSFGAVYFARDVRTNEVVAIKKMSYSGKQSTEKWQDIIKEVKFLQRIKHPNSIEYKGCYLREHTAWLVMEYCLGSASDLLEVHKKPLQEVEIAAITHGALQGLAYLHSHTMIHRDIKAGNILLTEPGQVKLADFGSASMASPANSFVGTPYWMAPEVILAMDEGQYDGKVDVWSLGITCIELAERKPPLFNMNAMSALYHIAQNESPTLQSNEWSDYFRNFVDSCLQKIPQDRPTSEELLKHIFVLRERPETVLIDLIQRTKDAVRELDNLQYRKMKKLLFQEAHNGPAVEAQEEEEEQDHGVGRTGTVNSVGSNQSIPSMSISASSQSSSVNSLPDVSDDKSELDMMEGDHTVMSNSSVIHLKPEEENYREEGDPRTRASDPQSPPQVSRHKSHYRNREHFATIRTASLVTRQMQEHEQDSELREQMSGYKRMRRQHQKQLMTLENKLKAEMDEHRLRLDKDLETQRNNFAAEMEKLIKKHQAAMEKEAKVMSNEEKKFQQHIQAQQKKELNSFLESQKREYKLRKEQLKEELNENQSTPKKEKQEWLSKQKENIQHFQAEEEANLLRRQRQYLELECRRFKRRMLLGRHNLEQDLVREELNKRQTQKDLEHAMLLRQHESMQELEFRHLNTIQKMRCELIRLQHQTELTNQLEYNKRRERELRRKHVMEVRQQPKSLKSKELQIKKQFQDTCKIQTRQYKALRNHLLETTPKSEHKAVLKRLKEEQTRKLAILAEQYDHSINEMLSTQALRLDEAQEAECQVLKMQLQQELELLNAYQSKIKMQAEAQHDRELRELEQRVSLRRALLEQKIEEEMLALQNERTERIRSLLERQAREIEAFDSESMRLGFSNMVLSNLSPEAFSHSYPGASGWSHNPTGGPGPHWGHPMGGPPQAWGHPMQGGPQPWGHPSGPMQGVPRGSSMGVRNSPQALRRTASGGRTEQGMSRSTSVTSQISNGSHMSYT

Study 1 — observed: enzyme activity; action: inhibitor; tested at: 0.5 µM; reference: control; measurement: remaining activity
Target: Ephrin type-A receptor 1 (EPHA1, Homo sapiens, UniProt P21709)
UniProt P21709, sequence (whole entry, looked up): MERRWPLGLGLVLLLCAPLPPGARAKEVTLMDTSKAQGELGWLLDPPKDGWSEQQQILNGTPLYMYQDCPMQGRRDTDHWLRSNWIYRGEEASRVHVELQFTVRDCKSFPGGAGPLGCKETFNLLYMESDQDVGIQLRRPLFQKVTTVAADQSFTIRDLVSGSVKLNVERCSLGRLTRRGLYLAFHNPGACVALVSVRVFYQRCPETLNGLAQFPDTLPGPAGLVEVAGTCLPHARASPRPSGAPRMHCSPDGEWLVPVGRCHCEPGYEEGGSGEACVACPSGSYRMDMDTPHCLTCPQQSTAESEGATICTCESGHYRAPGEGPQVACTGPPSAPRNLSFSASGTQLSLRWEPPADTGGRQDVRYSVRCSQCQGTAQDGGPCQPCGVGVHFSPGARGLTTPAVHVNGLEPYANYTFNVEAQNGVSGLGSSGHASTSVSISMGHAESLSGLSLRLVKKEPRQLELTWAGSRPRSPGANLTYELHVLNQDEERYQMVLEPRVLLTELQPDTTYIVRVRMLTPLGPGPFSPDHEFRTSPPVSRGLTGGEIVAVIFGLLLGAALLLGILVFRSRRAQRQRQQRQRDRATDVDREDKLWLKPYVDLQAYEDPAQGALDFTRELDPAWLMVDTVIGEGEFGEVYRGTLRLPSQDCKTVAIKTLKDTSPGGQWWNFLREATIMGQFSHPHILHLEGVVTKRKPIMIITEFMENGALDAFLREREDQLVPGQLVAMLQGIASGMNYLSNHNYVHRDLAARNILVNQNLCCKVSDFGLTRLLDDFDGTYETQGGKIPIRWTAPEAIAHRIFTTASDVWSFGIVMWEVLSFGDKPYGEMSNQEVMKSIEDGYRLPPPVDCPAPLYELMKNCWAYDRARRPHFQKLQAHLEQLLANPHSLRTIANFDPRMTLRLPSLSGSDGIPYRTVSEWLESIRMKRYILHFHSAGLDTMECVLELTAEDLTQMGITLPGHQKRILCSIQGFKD
O=C(Nc1cccc(Nc2cc(Nc3cccc(C(F)(F)F)c3)ncn2)c1)C1CC1: 92.9%
O=C(O)c1ccc2c3c1cccc3c(=O)n1c3ccccc3nc21: 95.3%
COc1cc2ncnc(Nc3ccc(Oc4ccccc4)cc3)c2cc1OC: 95.6%
O=C1NC(=O)C(c2cn(CCCn3ccnc3)c3ccccc23)=C1Nc1ccccc1: 101%
O=S(=O)(c1cccc2cnccc12)N1CCCNCC1: 79.9%
CNC(=O)c1cc(Oc2ccc(NC(=O)Nc3ccc(Cl)c(C(F)(F)F)c3)cc2)ccn1: 87.7%
O=C1NC(=O)C(c2cn(CCCO)c3ncccc23)=C1c1cnccn1: 73.9%
O=C(CCCc1ccc(-c2ccccc2F)cc1)Nc1ccc(O)cc1: 117%
COc1ccc(CNC(=O)Nc2ncc([N+](=O)[O-])s2)cc1: 107%
COc1cc2nccc(Oc3ccc(NC(=S)NC(=O)c4ccccc4C)cc3)c2cc1OC: 83%
Cn1sc(=O)n(Cc2ccccc2)c1=O: 106%
CO[C@H]1C[C@@H]2CC[C@@H](C)[C@@](O)(O2)C(=O)C(=O)N2CCCC[C@H]2C(=O)O[C@H]([C@H](C)C[C@@H]2CC[C@@H](O)[C@H](OC)C2)CC(=O)[C@H](C)/C=C(\C)[C@@H](O)[C@@H](OC)C(=O)[C@H](C)C[C@H](C)/C=C/C=C/C=C/1C: 99.5%
Nc1[nH]nc2nc3ccccc3nc12: 100%
OCC(O)CCON=C1C(c2c(O)[nH]c3ccccc23)=Nc2ccccc21 (stereo not shown): 82.2%
Cn1c2ccccc2c2c3c(c4c5ccccc5n(CCC#N)c4c21)CNC3=O: 81.6%
Cc1ccc(Nc2nccc(N(C)c3ccc4c(C)n(C)nc4c3)n2)cc1S(N)(=O)=O: 85%

Study 2 — observed: cell-free assay; method: competition with immobilised ligand; tested at: 1 µM; measurement: remaining binding
Compound: CCCCN(CCCC)C(=O)CN1C[C@H](c2cc(OC)c3c(c2)OCO3)[C@@H](C(=O)O)[C@@H]1CC(C)(C)CCC
PIK3CA (Homo sapiens, UniProt P42336, M1043I): 83.7%
CDK17 (Homo sapiens, UniProt Q00537): 99.3%
SLK (Homo sapiens, UniProt Q9H2G2): 100%
KIT (Homo sapiens, UniProt P10721, V559D): 96.1%
ABL2 (Homo sapiens, UniProt P42684): 100%
PIM2 (Homo sapiens, UniProt Q9P1W9): 100%
Myosin-IIIa (MYO3A, Homo sapiens, UniProt Q8NEV4): 100%
EGFR (Homo sapiens, UniProt P00533, G719C): 95.4%
TAOK1 (Homo sapiens, UniProt Q7L7X3): 55.6%
MAP3K4 (Homo sapiens, UniProt Q9Y6R4): 88.7%
PIK3CA (Homo sapiens, UniProt P42336, H1047L): 100%
SGK2 (Homo sapiens, UniProt Q9HBY8): 69.9%
DYRK2 (Homo sapiens, UniProt Q92630): 71.4%
FLT3 (Homo sapiens, UniProt P36888): 100%
ULK2 (Homo sapiens, UniProt Q8IYT8): 88.8%
CSNK2A2 (Homo sapiens, UniProt P19784): 98.4%
STK39 (Homo sapiens, UniProt Q9UEW8): 100%

Study 3 — target: CCND2, cyclin fold, Cln2 fusion (human); method: yeast growth competition, sequencing; sample: yeast; setting: weak parent motif; reference: not given; reading: higher = stronger binding; measurement: normalised enrichment score
Parent: PKN2 docking peptide (human); VSAVQKLDFSDTM
VSAMQKLDFSDTM [V4M]: 0.013
VSAVQKLQFSDTM [D8Q]: 0.553
VSAVQCLDFSDTM [K6C]: 0.315
ESAVQKLDFSDTM [V1E]: 0.168
VSAVQSLDFSDTM [K6S]: 0.418
VSGVQKLDFSDTM [A3G]: 0.19
VSAVQKLDFSDTS [M13S]: 0.851
VSAVQKLDFSDTV [M13V]: 0.551

Mixed results — method: surface plasmon resonance; molecule type: double-stranded DNA, one strand shown; sample: in vitro; tested at: 1 nM to 1 µM; setting: 10-bp κB site, 1:1 kinetic fit, 10 °C; reading: higher = slower dissociation
Target: Proto-oncogene c-Rel, Rel homology region (Rel, Mus musculus, UniProt P15307, residues 1-282)
UniProt P15307, sequence (1-282, looked up): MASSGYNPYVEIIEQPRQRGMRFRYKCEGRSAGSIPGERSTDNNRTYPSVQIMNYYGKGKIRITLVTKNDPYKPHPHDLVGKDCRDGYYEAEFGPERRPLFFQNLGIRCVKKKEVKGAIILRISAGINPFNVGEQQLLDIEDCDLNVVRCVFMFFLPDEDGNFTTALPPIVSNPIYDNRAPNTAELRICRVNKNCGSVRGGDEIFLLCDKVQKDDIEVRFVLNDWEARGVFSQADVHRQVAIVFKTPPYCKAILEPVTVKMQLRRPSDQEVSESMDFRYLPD
AGGAATTCCA — dissociation half-life: 0.767 min
GGAATTTCTT — dissociation half-life: 1.53 min

Excerpt of the above (study 2):
PIK3CA (Homo sapiens, UniProt P42336, M1043I): 83.7%
TAOK1 (Homo sapiens, UniProt Q7L7X3): 55.6%
FLT3 (Homo sapiens, UniProt P36888): 100%
MAP3K4 (Homo sapiens, UniProt Q9Y6R4): 88.7%
